Experimental data pooled from the literature.
Compare with care: the assays were run in different laboratories. Values joined by “and” are separate records of one study, mostly repeats; a detail may differ.
U2AF2: U2AF2 148-342 (Homo sapiens, UniProt P26368)
UniProt P26368, sequence (whole entry, looked up): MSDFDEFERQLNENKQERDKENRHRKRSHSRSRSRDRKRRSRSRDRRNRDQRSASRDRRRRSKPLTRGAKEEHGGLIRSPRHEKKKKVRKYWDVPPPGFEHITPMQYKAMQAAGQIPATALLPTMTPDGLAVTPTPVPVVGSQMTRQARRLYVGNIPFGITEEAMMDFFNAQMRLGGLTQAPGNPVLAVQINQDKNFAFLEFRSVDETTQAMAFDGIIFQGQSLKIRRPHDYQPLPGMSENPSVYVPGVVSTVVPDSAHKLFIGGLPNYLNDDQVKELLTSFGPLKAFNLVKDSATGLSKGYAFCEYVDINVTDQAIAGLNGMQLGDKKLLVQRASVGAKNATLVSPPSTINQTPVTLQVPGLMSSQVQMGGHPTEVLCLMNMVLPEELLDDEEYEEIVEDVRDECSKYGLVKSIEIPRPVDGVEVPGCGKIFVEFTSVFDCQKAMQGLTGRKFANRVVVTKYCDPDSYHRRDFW
B1: human RBBP7; sequence looked up; chain ASKEMFEDTVEERVINEEYKIWKKNTPFLYDLVMTHALQWPSLTVQWLPEVTKPEGKDYALHWLVLGTHTSDEQNHLVVARVHIPNDDAQFDASHCDSDKGEFGGFGSVTGKIECEIKINHEGEVNRARYMPQNPHIIATKTPSSDVLVFDYTKHPAKPDPSGECNPDLRLRGHQKEGYGLSWNSNLSGHLLSASDDHTVCLWDINAGPKEGKIVDAKAIFTGHSAVVEDVAWHLLHESLFGSVADDQKLMIWDTRSNTTSKPSHLVDAHTAEVNCLSFNPYSEFILATGSADKTVALWDLRNLKLKLHTFESHKDEIFQVHWSPHNETILASSGTDRRLNVWDLSKIGEEQSAEDAEDGPPELLFIHGGHTAKISDFSWNPNEPWVICSVSEDNIMQIWQMAENIYNDEESDVTTSELEGQGS
B2: human septin-10; sequence looked up; chain MASSEVARHLLFQSHMATKTTCMSSQGSDDEQIKRENIRSLTMSGHVGFESLPDQLVNRSIQQGFCFNILCVGETGIGKSTLIDTLFNTNFEDYESSHFCPNVKLKAQTYELQESNVQLKLTIVNTVGFGDQINKEESYQPIVDYIDAQFEAYLQEELKIKRSLFTYHDSRIHVCLYFISPTGHSLKTLDLLTMKNLDSKVNIIPVIAKADTVSKTELQKFKIKLMSELVSNGVQIYQFPTDDDTIAKVNAAMNGQLPFAVVGSMDEVKVGNKMVKARQYPWGVVQVENENHCDFVKLREMLICTNMEDLREQTHTRHYELYRRCKLEEMGFTDVGPENKPVSVQETYEAKRHEFHGERQRKEEEMKQMFVQRVKEKEAILKEAERELQAKFEHLKRLHQEERMKLEEKRRLLEEEIIAFSKKKATSEIFHSQSFLATGSNLRKDKDRKNSNFL
B3: STK38 (human); sequence looked up; chain AMTGSTPCSSMSNHTKERVTMTKVTLENFYSNLIAQHEEREMRQKKLEKVMEEEGLKDEEKRLRRSAHARKETEFLRLKRTRLGLEDFESLKVIGRGAFGEVRLVQKKDTGHVYAMKILRKADMLEKEQVGHIRAERDILVEADSLWVVKMFYSFQDKLNLYLIMEFLPGGDMMTLLMKKDTLTEEETQFYIAETVLAIDSIHQLGFIHRDIKPDNLLLDSKGHVKLSDFGLCTGLKKAHRTEFYRNLNHSLPSDFTFQNMNSKRKAETWKRNRRQLAFSTVGTPDYIAPEVFMQTGYNKLCDWWSLGVIMYEMLIGYPPFCSETPQETYKKVMNWKETLTFPPEVPISEKAKDLILRFCCEWEHRIGAPGVEEIKSNSFFEGVDWEHIRERPAAISIEIKSIDDTSNFDEFPESDILKPTVATSNHPETDYKNKDWVFINYTYKRFEGLTARGAIPSYMKAAK
B4: human zyxin; sequence looked up; chain AAPRPSPAISVSVSAPAFYAPQKKFGPVVAPKPKVNPFRPGDSEPPPAPGAQRAQMGRVGEIPPPPPEDFPLPPPPLAGDGDDAEGALGGAFPPPPPPIEESFPPAPLEEEIFPSPPPPPEEEGGPEAPIPPPPQPREKVSSIDLEIDSLSSLLDDMTKNDPFKARVSSGYVPPPVATPFSSKSSTKPAAGGTAPLPPWKSPSSSQPLPQVPAPAQSQTQFHVQPQPQPKPQVQLHVQSQTQPVSLANTQPRGPPASSPAPAPKFSPVTPKFTPVASKFSPGAPGGSGSQPNQKLGHPEALSAGTGSPQPPSFTYAQQREKPRVQEKQHPVPPPAQNQNQVRSPGAPGPLTLKEVEELEQLTQQLMQDMEHPQRQNVAVNELCGRCHQPLARAQPAVRALGQLFHIACFTCHQCAQQLQGQQFYSLEGAPYCEGCYTDTLEKCNTCGEPITDRMLRATGKAYHPHCFTCVVCARPLEGTSFIVDQANRPHCVPDYHKQYAPRCSVCSEPIMPEPGRDETVRVVALDKNFHMKCYKCEDCGKPLSIEADDNGCFPLDGHVLCRKCHTARAQT
B5: PP6 regulatory subunit 2 (human); sequence looked up; chain MFWKFDLNTTSHVDKLLDKEHVTLQELMDEDDILQECKAQNQKLLDFLCRQQCMEELVSLITQDPPLDMEEKVRFKYPNTACELLTCDVPQISDRLGGDESLLSLLYDFLDHEPPLNPLLASFFSKTIGNLIARKTEQVITFLKKKDKFISLVLKHIGTSALMDLLLRLVSCVEPAGLRQDVLHWLNEEKVIQRLVELIHPSQDEDRQSNASQTLCDIVRLGRDQGSQLQEALEPDPLLTALESQDCVEQLLKNMFDGDRTESCLVSGTQVLLTLLETRRVGTEGLVDSFSQGLERSYAVSSSVLHGIEPRLKDFHQLLLNPPKKKAILTTIGVLEEPLGNARLHGARLMAALLHTNTPSINQELCRLNTMDLLLDLFFKYTWNNFLHFQVELCIAAILSHAAREERTEASGSESRVEPPHENGNRSLETPQPAASLPDNTMVTHLFQKCCLVQRILEAWEANDHTQAAGGMRRGNMGHLTRIANAVVQNLERGPVQTHISEVIRGLPADCRGRWESFVEETLTETNRRNTVDLVSTHHLHSSSEDEDIEGAFPNELSLQQAFSDYQIQQMTANFVDQFGFNDEEFADQDDNINAPFDRIAEINFNIDADEDSPSAALFEACCSDRIQPFDDDEDEDIWEDSDTRCAARVMARPRFGAPHASESCSKNGPERGGQDGKASLEAHRDAPGAGAPPAPGKKEAPPVEGDSEGAMWTAVFDEPANSTPTAPGVVRDVGSSVWAAGTSAPEEKGWAKFTDFQPFCCSESGPRCSSPVDTECSHAEGSRSQGPEKASQASYFAVSPASPCAWNVCVTRKAPLLASDSSSSGGSHSEDGDQKAASAMDAVSRGPGREAPPLPTVARTEEAVGRVGCADSRLLSPACPAPKEVTAAPAVAVPPEATVAITTALSKAGPAIPTPAVSSALAVAVPLGPIMAVTAAPAMVATLGTVTKDGKTDAPPEGAALNGPV

| Substance | tested on | test | system | setting | scale | measurement | value |
| --- | --- | --- | --- | --- | --- | --- | --- |
| TASPAKETSF | construct, MBP fusion, human SCRIB, PDZ 3-4 | automated holdup | peptide, crude extract | concentration not given, uncorrected, unit not given | reference: biotin control resin, higher = stronger binding | binding intensity | 0.717 |
| heparin sodium |  |  | human | intravenous infusion, 8 IU/kg/h, day 1 to 6 |  | ACT AUEC | 16400 h·s |
| colistin | Pseudomonas aeruginosa |  | PA1049 PER-producing isolate |  |  | MIC | 2 µg/mL |
| epoetin alfa | UT7/EPO | RT-qPCR, item: BMP2 |  | concentration not given, 90 min, normalized to HPRT1 | reference: vehicle | mRNA level | 5.9 fold |
| GSGAGPETLV | construct, MBP fusion, human SCRIB, PDZ 3-4 | automated holdup | peptide, crude extract | concentration not given, corrected by standard peak, unit not given | reference: biotin control resin, higher = stronger binding | binding intensity | 0.262 |
| UUGAUUAUU (ssRNA) | U2AF2 | sequencing of bound RNA | RNA | motif only |  | Kd | 6.61 µM |
| B1 (human RBBP7) | CYB5R4 knockout human cells | PP6 interaction, 3xFLAG-PP6C IP-MS |  | concentration not given | reference: CYB5R4 KO over parental | log2 fold change | -0.61 |
| VMRLQSETSV | construct, MBP fusion, human SCRIB, PDZ 3-4 | automated holdup | peptide, purified PDZ protein | concentration not given, unit not given | reference: biotin control resin, higher = stronger binding | binding intensity | 0.346 |
| AUCCUACUU (ssRNA) | U2AF2 | sequencing of bound RNA | RNA | motif only |  | Kd | 0.38 µM |
| B2 (human septin-10) | CYB5R4 knockout human cells | PP4 interaction, 3xFLAG-PP4C IP-MS |  | concentration not given | reference: CYB5R4 KO over parental | log2 fold change | -0.21 |
| GSGAGICTIV | construct, MBP fusion, human SCRIB, PDZ 3-4 | automated holdup | peptide, crude extract | concentration not given, corrected by standard peak, unit not given | reference: biotin control resin, higher = stronger binding | binding intensity | 0.111 |
| B3 (STK38) | CYB5R4 knockout human cells | PP4 interaction, 3xFLAG-PP4C IP-MS |  | concentration not given | reference: CYB5R4 KO over parental | log2 fold change | 0.72 |
| VVVGAAGVGK | HLA-A*11:01 peptide-β2M single-chain trimer | western blot, item: pMHC-I | peptide, 293T cells | 48 h, unit not given, together with: 100 µg/mL cycloheximide | reference: time zero | remaining protein | 0.549 and 0.55 and 0.575 |
| B4 (human zyxin) | PP6C (human) | co-immunoprecipitation, IP-MS | CYB5R4 knockout cells | concentration not given | reference: CYB5R4 knockout over parental | log2 fold change | 0.58 |
| Peginesatide | UT7/EPO | RT-qPCR, item: KLF6 |  | concentration not given, 90 min, normalized to HPRT1 | reference: vehicle | mRNA level | 3.7 fold |
| colistin | Pseudomonas aeruginosa |  | clinical isolate RKI 613/16 |  |  | MIC | 1 µg/mL |
| B5 (PP6 regulatory subunit 2) | PP6C (human) | co-immunoprecipitation, IP-MS | CYB5R4 knockout cells | concentration not given | reference: CYB5R4 knockout over parental | log2 fold change | -1.09 |

For quick reference, copied from above:
| Substance | tested on | test | system | setting | scale | measurement | value |
| --- | --- | --- | --- | --- | --- | --- | --- |
| VMRLQSETSV | construct, MBP fusion, human SCRIB, PDZ 3-4 | automated holdup | peptide, purified PDZ protein | concentration not given, unit not given | reference: biotin control resin, higher = stronger binding | binding intensity | 0.346 |
